Measurements of several laboratories.
Lines come from different studies, so protocols differ. ± marks the error that the study gave.

Compound | assay | test system | conditions | how to read | measurement | value
[2H]C([2H])([2H])C(c1cc2nnc(-c3cc(F)ccc3F)n2nc1OCc1ncnn1C)(C([2H])([2H])[2H])C([2H])([2H])[2H] |  | Wistar rat, plasma | oral, 30 mg/kg, 2 h |  | concentration | 1.1 µg/mL
CCCCCCCCCCCCCCCC(=O)N[C@@H](CCCCN)C(=O)N[C@@H](CCCCN)C(=O)N[C@@H](CO)C(=O)N[C@@H](CCCNC(=N)N)C(=O)N[C@@H](C)C(=O)N[C@@H](CC(C)C)C(=O)N[C@@H](Cc1ccccc1)C(N)=O |  | cynomolgus monkey, female | 30 mg/kg, day 1 |  | prothrombin time | 11.7 ± 0.3 s
CC/C=C\C/C=C\C/C=C\C/C=C\C/C=C\CCCCOC(CC)C(=O)O (stereo not shown) | [14C] label | male Wistar rat, liver | oral, 100 mg/kg, 1 day |  | radioactivity concentration | 25.5 µg equiv/g
COC(=O)CCn1c2ccc([N+](=O)[O-])cc2c(=O)n1Cc1ccccc1 | resazurin | peritoneal macrophages, BALB/c mice | 48 h, 10% FBS |  | CC50 | 7.2 ± 5.4 µM
CC[C@H](C)[C@H](NC(=O)[C@H](Cc1ccccc1)NC(=O)[C@H](CN)NC(=O)[C@H](CCCNC(=N)N)NC(=O)[C@H](Cc1ccccc1)NC(=O)[C@H](Cc1ccccc1)NC(=O)[C@H](CCCCN)NC(=O)[C@H](CO)NC(=O)[C@H](CC(C)C)NC(=O)[C@H](CCCNC(=N)N)NC(=O)[C@H](CCSC)NC(=O)[C@H](C)N)C(=O)N[C@@H](CC(C)C)C(=O)N[C@@H](CCN)C(=O)N[C@@H](CCCNC(=N)N)C(=O)N[C@@H](CCCCN)C(=O)N[C@@H](CCCCN)C(=O)O | circular dichroism | 20% TFE in PBS | 200 µM, pH 7.4, 25 °C |  | helicity | 4.2%
O=C(O)C1OC(OC2C(COS(=O)(=O)O)OC(OC3C(C(=O)O)OC(OC4C(COS(=O)(=O)O)OC(OC5C(C(=O)O)OC(OC6C(COS(=O)(=O)O)OC(OC7C(C(=O)O)OC(OC8C(COS(=O)(=O)O)OC(OC9C(C(=O)O)OC(OC%10C(COS(=O)(=O)O)OC(OC%11C(C(=O)O)OC(Oc%12ccc([N+](=O)[O-])cc%12)C(O)C%11O)C(NS(=O)(=O)O)C%10O)C(OS(=O)(=O)O)C9O)C(NS(=O)(=O)O)C8O)C(OS(=O)(=O)O)C7O)C(NS(=O)(=O)O)C6O)C(OS(=O)(=O)O)C5O)C(NS(=O)(=O)O)C4O)C(OS(=O)(=O)O)C3O)C(NS(=O)(=O)O)C2OS(=O)(=O)O)C(O)C(O)C1OC1OC(COS(=O)(=O)O)C(O)C(O)C1NS(=O)(=O)O (stereo not shown) |  | rat, heart | intravenous, 3600 µg/kg per day, 7 days, day 8 |  | organ-to-body weight ratio | 0.41 ± 0.02
O=C(NCCCN(CCCCN(CCCNC(=O)c1cccc(=O)n1[O-])C(=O)c1cccc(=O)n1[O-])C(=O)c1cccc(=O)n1[O-])c1cccc(=O)n1[O-].[89Zr+4] | radio-TLC | PBS | 5 d, pH 7.4, 37 °C, with: Gd^3+ 10-fold excess |  | intact complex | 96.5 ± 2.9%
CSCOC1C(=O)C2(C)C(OCSC)CC3OCC3(OC(C)=O)C2C(OC(=O)c2ccccc2)C2(O)CC(OC(=O)C(O)C(C=C(C)C)NC(=O)OC(C)(C)C)C(C)=C1C2(C)C (stereo not shown) |  | male Sprague-Dawley rat, plasma | intravenous, 2 mg/kg |  | Cmax | 0.218 µg/mL
Cn1c(=O)oc2ccc(-c3ccc(CC(C#N)NC(=O)C4CNCCCO4)c(F)c3)cc21 (stereo not shown) |  | human | oral, 10 mg once daily, TEAE, multiple ascending dose |  | AST increased incidence | 0%
Cc1ccc(OCC(=O)O)cc1 |  | Sprague-Dawley rat, female, plasma | oral gavage, 100 mg/kg of parent drug | baseline: compound over parent drug | AUC(0-last) ratio | 473
C[C@H](NC(=O)[C@H](C)NC(=O)[C@H](C)NC(=O)[C@H](CCCNC(=N)N)NC(=O)[C@H](CCCNC(=N)N)NC(=O)[C@H](C)NC(=O)[C@H](C)NC(=O)[C@H](C)NC(=O)[C@H](C)NC(=O)[C@H](CCCNC(=N)N)NC(=O)[C@H](CCCNC(=N)N)NC(=O)[C@H](C)NC(=O)[C@H](C)NC(=O)[C@H](C)NC(=O)[C@H](C)NC(=O)[C@H](CCCNC(=N)N)NC(=O)[C@H](CCCNC(=N)N)NC(=O)c1ccc2c(c1)C(=O)OC21c2ccc(O)cc2Oc2cc(O)ccc21)C(=O)N[C@@H](C)C(=O)N[C@@H](CCCNC(=N)N)C(=O)N[C@@H](CCCNC(=N)N)C(=O)O |  | bovine cartilage explants | 7 days, with: 10 x PBS |  | desorbed fraction | 50 to 80%
CC(C)(Sc1cc[n+]([O-])cc1-c1ccc(C#N)c2ccccc12)C(=O)OC1OC(C(=O)O)C(O)C(O)C1O (stereo not shown) |  | adult men, plasma | oral, 15 mg verinurad, severe renal impairment | baseline: impaired over normal renal function | Cmax ratio | 370%
CC[C@H](C)[C@H](NC(=O)[C@H](Cc1ccccc1)NC(=O)[C@H](CCC(=O)O)NC(=O)[C@H](CCCCN)NC(=O)[C@H](C)NC(=O)[C@H](C)NC(=O)[C@H](CCC(N)=O)NC(=O)CNC(=O)[C@H](CCC(=O)O)NC(=O)[C@H](CC(C)C)NC(=O)[C@H](Cc1ccc(O)cc1)NC(=O)[C@H](CO)NC(=O)[C@H](CO)NC(=O)[C@@H](NC(=O)[C@H](CC(=O)O)NC(=O)[C@H](CO)NC(=O)[C@@H](NC(=O)[C@H](Cc1ccccc1)NC(=O)[C@@H](NC(=O)CNC(=O)[C@H](CCC(=O)O)NC(=O)[C@H](C)NC(=O)[C@@H](N)Cc1c[nH]cn1)[C@@H](C)O)[C@@H](C)O)C(C)C)C(=O)N[C@@H](C)C(=O)N[C@@H](Cc1c[nH]c2ccccc12)C(=O)N[C@@H](CC(C)C)C(=O)N[C@H](C(=O)N[C@@H](CCCCN)C(=O)NCC(=O)N[C@@H](CCCNC(=N)N)C(N)=O)C(C)C |  | human type 2 diabetes, plasma | intravenous infusion, 1.2 pmol/kg/min, 60 to 360 min, with: GIP 4 pmol/kg/min |  | metabolic clearance rate | 0.6 ± 0.06 L/h/kg
CCOc1ccc2cc(-c3nn(CC4CCN(C)CC4)c4ncnc(N)c34)ccc2n1 | LC-MS/MS | crossbred piglets (Landrace x Large White) | oral, 10 mg/kg twice daily, 2 h after dose 9, day 7 post-infection |  | plasma concentration | 10.2 ± 2.9 µM
CCCC[C@H](NC(=O)CNC(=O)CNC(=O)CN1CCN(CC(=O)O)CCN(CC(=O)O)CCN(CC(=O)O)CC1)C(=O)N[C@H]1CC(=O)NCCCC[C@@H](C(N)=O)NC(=O)[C@H](Cc2c[nH]c3ccccc23)NC(=O)[C@H](CCCNC(=N)N)NC(=O)[C@@H](Cc2ccccc2)NC(=O)[C@H](Cc2c[nH]cn2)NC1=O [gallium-67 labelled] |  | C57 mice, female, B16/F1 melanoma, tumour over muscle | intravenous, 0.037 MBq, 24 h |  | tumour to tissue uptake ratio | 25.5
CONC(=O)/C=C/c1cccc(S(=O)(=O)Nc2ccccc2)c1 |  | human, moderate liver dysfunction, plasma | intravenous, 400 mg/m^2 belinostat, cycle 1 day -7, geometric mean | baseline: metabolite over belinostat | Cmax metabolic ratio | 0.149
CCCCCCCCCCCC(=O)O[C@@H](C(=O)O[C@H]1C[C@@]2(O)[C@@H](OC(=O)c3ccccc3)[C@@H]3[C@]4(OC(C)=O)CO[C@@H]4C[C@H](O)[C@@]3(C)C(=O)[C@H](O)C(=C1C)C2(C)C)[C@@H](NC(=O)OC(C)(C)C)c1ccccc1 |  | fresh mouse plasma | 10 µg/mL, 37 °C |  | disappearance time | 8 h
CCCC(CCC)NC(=O)c1ccc(OC2OC(C(=O)O)C(O)C(O)C2O)c(OC)c1 (stereo not shown) |  | female Sprague-Dawley rat, plasma | oral, 200 mg/kg of parent drug |  | Tmax | 8 h
O=C1CCc2ccc(NS(=O)(=O)c3cccc(Oc4ccccc4)c3)cc2N1 |  | mouse C57BL/6J, plasma | oral, 3 mg/kg |  | oral bioavailability | 38%
COc1cc(NC(C)=O)c2c(c1O)-c1c(OC)c(OC)cc3c1C(C2)N(C)CC3 (stereo not shown) |  | rat lung homogenate | 0.5 µg/mL, 40 d, -20 °C, long-term storage |  | remaining compound | 89.5 ± 2.2%
OC1(C(F)(F)F)CCN(c2nc(Nc3ccnc(C(F)(F)F)c3)nc(-c3cccc(C(F)(F)F)n3)n2)C1 (stereo not shown) |  | monkey, blood | oral, 3 mg/kg |  | oral bioavailability | 114%
OCc1cn(Cc2ccc(-c3noc(-c4ccc(OCC[18F])c(C(F)(F)F)c4)n3)cc2)nn1 |  | rat, bone | intravenous, 2 h |  | tracer uptake | 0.51 %ID/g
O=S(=O)(c1ccccc1)N1CCCCC1 | HPLC |  | pH 7.5 |  | chromatographic logD | 2.6
CC(C)[C@H](NC(=O)[C@@H]1CCCN1C(=O)[C@H](CCCNC(=N)N)NC(=O)[C@H](CS)NC(=O)[C@H](Cc1c[nH]c2ccccc12)NC(=O)[C@H](CCCNC(=N)N)NC(=O)[C@@H](Cc1ccccc1)NC(=O)[C@H](Cc1c[nH]cn1)NC(=O)[C@H](CCC(=O)O)NC(=O)[C@H](CS)NC(=O)[C@H](CS)NC(=O)CNC(=O)[C@@H]1CC(=O)N[C@@H](CCCNC(=N)N)C(=O)NCC(=O)N[C@@H](CC(=O)O)C(=O)N[C@H](Cc2ccc(O)cc2)C(=O)N1)C(N)=O [technetium-99m labelled] |  | C57 mouse, female, B16/F1 melanoma | intravenous, 0.037 MBq, 24 h | baseline: tumour over lung | tumour to tissue ratio | 16.3
N=C(N)NCCC[C@@H]1NC(=O)[C@H](Cc2c[nH]c3ccccc23)NC(=O)[C@@H](CC2CCCCC2)NC(=O)[C@@H]2CCCN2C(=O)[C@@H](NC(=O)CCc2ccccc2)CCCNC1=O |  | C57BL/6J mice, plasma | oral, 1 mg/kg, two-compartment model |  | elimination rate constant | 0.000581 s⁻¹
COc1ccc(/C=C/C2=[N+]3C(=C(C=O)c4c(C)c(Br)c(/C=C/c5ccc(OC)cc5)n4[B-]3(F)F)C(C)=C2Br)cc1 |  | DMSO/methanol 1:1 | 1 h, with: 645 nm light, 9.00 J/cm2 |  | photostability | unstable
COC(=O)c1ccc2c(c1)NC(=O)/C2=C(\Nc1ccc2c(c1)CCN2C(=O)CN1CCOCC1)c1ccccc1 |  | cynomolgus monkey, plasma | intravenous, 2 mg/kg |  | Vd | 3.57 L/kg
CN1CCC[C@]1(C)/C=C/S(=O)(=O)NC(=O)Nc1c2c(cc3c1CCC3)CCC2 |  | human, plasma | oral, 100 mg twice daily, 14 days, multiple ascending dose | baseline: day 14 over day 1 | accumulation ratio AUC(0-24) | 1.3

Excerpt of the above:
Compound | assay | test system | conditions | how to read | measurement | value
CC(C)[C@H](NC(=O)[C@@H]1CCCN1C(=O)[C@H](CCCNC(=N)N)NC(=O)[C@H](CS)NC(=O)[C@H](Cc1c[nH]c2ccccc12)NC(=O)[C@H](CCCNC(=N)N)NC(=O)[C@@H](Cc1ccccc1)NC(=O)[C@H](Cc1c[nH]cn1)NC(=O)[C@H](CCC(=O)O)NC(=O)[C@H](CS)NC(=O)[C@H](CS)NC(=O)CNC(=O)[C@@H]1CC(=O)N[C@@H](CCCNC(=N)N)C(=O)NCC(=O)N[C@@H](CC(=O)O)C(=O)N[C@H](Cc2ccc(O)cc2)C(=O)N1)C(N)=O [technetium-99m labelled] |  | C57 mouse, female, B16/F1 melanoma | intravenous, 0.037 MBq, 24 h | baseline: tumour over lung | tumour to tissue ratio | 16.3
N=C(N)NCCC[C@@H]1NC(=O)[C@H](Cc2c[nH]c3ccccc23)NC(=O)[C@@H](CC2CCCCC2)NC(=O)[C@@H]2CCCN2C(=O)[C@@H](NC(=O)CCc2ccccc2)CCCNC1=O |  | C57BL/6J mice, plasma | oral, 1 mg/kg, two-compartment model |  | elimination rate constant | 0.000581 s⁻¹
